{"data": "Assay results collected from several papers", "note": "Every numbered part comes from another study and shows a few of its results, in no order. Changes are numbered by the printed parent chain."}
{"data": "Series 1", "target": "NFE2L2, bZIP domain (human)", "technique": "DHFR protein complementation", "medium": "yeast", "setting": "single substitutions, most at no-binding floor", "relative to": "wild-type JUN-FOS pair", "reading": "higher = stronger binding", "starting sequence": "JUN, bZIP domain (human); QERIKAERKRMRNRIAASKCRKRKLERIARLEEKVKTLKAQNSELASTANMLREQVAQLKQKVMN; partner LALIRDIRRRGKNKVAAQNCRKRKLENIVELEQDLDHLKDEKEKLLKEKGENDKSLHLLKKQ"}
{"Change": "N42I", "binding fitness": "-1.54 natural log"}
{"Change": "K34N", "binding fitness": "-1.4 natural log"}
{"Change": "R30P", "binding fitness": "-1.25 natural log"}
{"Change": "T37Q", "binding fitness": "-1.42 natural log"}
{"Change": "E44L", "binding fitness": "-1.44 natural log"}
{"Change": "A46E", "binding fitness": "-1.45 natural log"}
{"Change": "V56L", "binding fitness": "-1.41 natural log"}
{"Change": "E54S", "binding fitness": "-1.5 natural log"}
{"Change": "L52A", "binding fitness": "-1.52 natural log"}
{"Change": "Q55N", "binding fitness": "-1.48 natural log"}
{"Change": "K39P", "binding fitness": "-1.48 natural log"}
{"Change": "A29Y", "binding fitness": "-1.36 natural log"}
{"Change": "E32I", "binding fitness": "-1.57 natural log"}
{"Change": "T48Q", "binding fitness": "-1.58 natural log"}
{"Change": "Q55L", "binding fitness": "-1.55 natural log"}
{"Change": "N42Y", "binding fitness": "-1.48 natural log"}
{"Change": "E33D", "binding fitness": "-1.27 natural log"}
{"Change": "L31D", "binding fitness": "-1.42 natural log"}
{"Change": "M51L", "binding fitness": "-1.44 natural log"}
{"Change": "S43R", "binding fitness": "-1.46 natural log"}
{"Change": "E44C", "binding fitness": "-1.44 natural log"}
{"Change": "E44Q", "binding fitness": "-1.47 natural log"}
{"Change": "E54H", "binding fitness": "-1.46 natural log"}
{"Change": "E44I", "binding fitness": "-1.53 natural log"}
{"Change": "L45G", "binding fitness": "-1.57 natural log"}
{"data": "Series 2", "target": "Ras GTPase-activating protein-binding protein 1, C-terminal RGG region (G3BP1, Homo sapiens, UniProt Q13283)", "technique": "RNA Bind-n-Seq", "molecule type": "RNA", "medium": "in vitro", "tested at": "1 µM", "setting": "whole 134-nt RNA, ends assumed", "with": "150 mM KCl", "relative to": "input library", "reading": "higher = stronger binding", "shared flanks, not repeated": "GGGAGUUCUACAGUCCGACGAUC … UGGAAUUCUCGGGUGUCAAGG", "chain of UniProt Q13283 (whole entry, looked up)": "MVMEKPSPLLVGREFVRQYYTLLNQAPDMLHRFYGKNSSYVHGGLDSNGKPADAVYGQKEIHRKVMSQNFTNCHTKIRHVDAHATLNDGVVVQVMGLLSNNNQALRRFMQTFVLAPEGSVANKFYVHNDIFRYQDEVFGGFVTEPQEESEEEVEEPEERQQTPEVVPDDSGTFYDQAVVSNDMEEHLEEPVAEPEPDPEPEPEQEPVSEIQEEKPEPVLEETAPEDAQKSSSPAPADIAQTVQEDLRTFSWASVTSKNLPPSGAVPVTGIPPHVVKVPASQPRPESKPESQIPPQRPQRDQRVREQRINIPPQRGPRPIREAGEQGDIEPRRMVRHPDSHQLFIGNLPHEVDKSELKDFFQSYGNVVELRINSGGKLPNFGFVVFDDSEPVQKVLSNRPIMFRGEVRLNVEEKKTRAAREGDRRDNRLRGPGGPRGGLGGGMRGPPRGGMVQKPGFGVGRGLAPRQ"}
{"Sequence": "GUCCUGUGCUACACAUCGUAUGUACCGAAUCGGGGAAAGGGGAAAGGGGUUUUUGGGGAAAGUAUUAUGUUACGCCGUUCGGAUCUGCAC", "log2 enrichment": 3.11}
{"Sequence": "CUCAAGUCCUGUGCUACACAUCGUAUGUACCGAAUCGGGGAGGGGAGGGAGGGGAAAGUAUUAUGUUACGCCGUUCGGAUCUGCACUUCC", "log2 enrichment": 3.01}
{"Sequence": "UAACUUUAGAGGAGGAUCUGAUGGAUAUGUCAGUGGACGUGGAUUUGGGGAUGGCUAUAAUGGGUAUGGAGGAGGACCUGGAGGUGGCAA", "log2 enrichment": -1.39}
{"Sequence": "AGUCCUGUGCUACACAUCGUAUGUACCGAAUCAAACCCCCCCAAACCCAAACCCAAAAAAGUAUUAUGUUACGCCGUUCGGAUCUGCACU", "log2 enrichment": -1.07}
{"Sequence": "UUCCUCAAGUCCUGUGCUACACAUCGUAUGUACCGAAUCGGUGGAGGAGGAAAGUAUUAUGUUACGCCGUUCGGAUCUGCACUUCCAGCA", "log2 enrichment": -1.5}
{"Sequence": "CUCAAGUCCUGUGCUACACAUCGUAUGUACCGAAUCGGAAGGGAAGGAAGGGGAAAGUAUUAUGUUACGCCGUUCGGAUCUGCACUUCCA", "log2 enrichment": -0.924}
{"Sequence": "CCUCAAGUCCUGUGCUACACAUCGUAUGUACCGAAUCGGGGUUGGUUGGUUGGAAAGUAUUAUGUUACGCCGUUCGGAUCUGCACUUCCA", "log2 enrichment": -0.738}
{"Sequence": "UCCUGUGCUACACAUCGUAUGUACCGAAUCGGUUUUUUGGGGUUUUUUGGGUUUUUUGGGAAAGUAUUAUGUUACGCCGUUCGGAUCUGC", "log2 enrichment": -0.532}
{"Sequence": "UCAAGUCCUGUGCUACACAUCGUAUGUACCGAAUCGGCCCGGCCCGGGCCCGGGAAAGUAUUAUGUUACGCCGUUCGGAUCUGCACUUCC", "log2 enrichment": -1.23}
{"data": "Series 3", "target": "CCNB2, cyclin fold, Cln2 fusion (human)", "technique": "yeast growth competition, sequencing", "medium": "yeast", "setting": "weak parent motif", "relative to": "not given", "reading": "higher = stronger binding", "starting sequence": "PLK5 docking peptide (human); IFRKVGQRLLTQC"}
{"Change": "Q7A", "normalised enrichment score": 0.31}
{"Change": "R3A", "normalised enrichment score": 0.305}
{"Change": "L9A", "normalised enrichment score": 0.359}
{"Change": "L10A", "normalised enrichment score": -0.212}
{"Change": "K4A", "normalised enrichment score": -0.00315}
{"Change": "R8A", "normalised enrichment score": 0.348}
{"data": "Series 4", "target": "ABI1, truncated, D143A, DHFR fusion (Arabidopsis thaliana)", "technique": "DHFR PCA, deep sequencing", "medium": "yeast", "setting": "methotrexate growth selection, single substitutions", "with": "(+)-ABA 0.0091 µM", "relative to": "wild-type fitted maximum", "reading": "higher = stronger binding", "starting sequence": "PYL1, truncated, DHFR fusion (Arabidopsis thaliana); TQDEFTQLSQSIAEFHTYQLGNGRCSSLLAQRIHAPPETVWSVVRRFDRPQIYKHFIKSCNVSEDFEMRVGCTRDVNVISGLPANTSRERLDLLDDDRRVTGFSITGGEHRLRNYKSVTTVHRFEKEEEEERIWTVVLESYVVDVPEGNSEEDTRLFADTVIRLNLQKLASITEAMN; partner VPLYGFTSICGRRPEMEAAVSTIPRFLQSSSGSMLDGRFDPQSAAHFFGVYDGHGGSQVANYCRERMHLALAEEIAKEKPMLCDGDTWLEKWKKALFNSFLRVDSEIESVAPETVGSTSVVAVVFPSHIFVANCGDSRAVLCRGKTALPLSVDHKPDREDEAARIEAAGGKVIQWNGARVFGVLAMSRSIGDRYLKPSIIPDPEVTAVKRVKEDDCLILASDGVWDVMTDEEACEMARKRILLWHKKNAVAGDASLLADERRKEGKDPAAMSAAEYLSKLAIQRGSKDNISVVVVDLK"}
{"Change": "A170Q", "relative binding score": "13.1%"}
{"Change": "L8E", "relative binding score": "6.98%"}
{"Change": "F103N", "relative binding score": "-6.13%"}
{"Change": "E131V", "relative binding score": "28.3%"}
{"Change": "E127G", "relative binding score": "31.8%"}
{"Change": "A158D", "relative binding score": "5.93%"}
{"Change": "T101E", "relative binding score": "-1.43%"}
{"Change": "I52G", "relative binding score": "-2.02%"}
{"Change": "R24L", "relative binding score": "4.84%"}
{"Change": "D159A", "relative binding score": "-0.301%"}
{"Change": "N77L", "relative binding score": "26.6%"}
{"Change": "L112I", "relative binding score": "-10.3%"}
{"Change": "L28H", "relative binding score": "-1.89%"}
{"Change": "L93G", "relative binding score": "-7.07%"}
{"Change": "N22K", "relative binding score": "53.4%"}
{"Change": "R88C", "relative binding score": "19.6%"}
{"Change": "E4I", "relative binding score": "25.8%"}
{"Change": "L94C", "relative binding score": "7.59%"}
{"Change": "D159R", "relative binding score": "-5.23%"}
{"Change": "E4A", "relative binding score": "9.49%"}
{"data": "Series 5", "target": "Sal-like protein 4, full length isoform B (SALL4, Homo sapiens, UniProt Q9UJQ4-2, residues 1-616)", "technique": "universal PBM", "molecule type": "double-stranded DNA, one strand shown", "medium": "in vitro", "tested at": "not given", "setting": "8-mer, flanks averaged, mean of replicates", "reading": "higher = stronger binding", "Construct (chain)": "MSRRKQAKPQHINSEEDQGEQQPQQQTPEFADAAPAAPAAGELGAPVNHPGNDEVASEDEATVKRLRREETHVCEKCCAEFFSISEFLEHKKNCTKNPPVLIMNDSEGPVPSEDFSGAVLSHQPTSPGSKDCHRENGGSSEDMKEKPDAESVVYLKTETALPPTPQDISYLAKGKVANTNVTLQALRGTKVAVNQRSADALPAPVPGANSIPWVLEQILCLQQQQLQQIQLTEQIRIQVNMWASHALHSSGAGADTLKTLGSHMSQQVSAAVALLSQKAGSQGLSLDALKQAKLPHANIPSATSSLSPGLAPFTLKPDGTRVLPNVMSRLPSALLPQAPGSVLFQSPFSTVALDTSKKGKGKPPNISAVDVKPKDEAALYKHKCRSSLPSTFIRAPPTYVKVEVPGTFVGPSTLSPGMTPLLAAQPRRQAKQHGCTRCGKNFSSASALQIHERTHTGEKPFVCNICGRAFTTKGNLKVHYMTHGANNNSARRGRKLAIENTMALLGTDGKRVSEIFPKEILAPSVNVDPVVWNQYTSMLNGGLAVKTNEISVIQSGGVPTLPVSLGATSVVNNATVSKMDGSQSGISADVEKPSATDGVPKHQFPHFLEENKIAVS"}
{"Sequence": "ACTTAATC", "E-score": 0.196}
{"Sequence": "CCCCGTAC", "E-score": -0.206}
{"Sequence": "AACCTAGG", "E-score": -0.0331}
{"Sequence": "AAAACGGC", "E-score": -0.0382}
{"Sequence": "GCATTGGC", "E-score": -0.0746}
{"Sequence": "CCGTGGTA", "E-score": -0.0925}
{"Sequence": "TCCCCCCA", "E-score": -0.1}
{"Sequence": "GTCGTAAC", "E-score": 0.00201}
{"Sequence": "GAACAAGA", "E-score": 0.0623}
{"Sequence": "CTTACTGA", "E-score": 0.113}
{"Sequence": "CGTGCCGA", "E-score": -0.232}
{"Sequence": "CGATAGCC", "E-score": -0.0749}
{"Sequence": "ATTGTTGA", "E-score": 0.227}
{"Sequence": "ACCTATTA", "E-score": 0.168}
{"Sequence": "TAACAGCA", "E-score": 0.193}
{"Sequence": "AGACAACC", "E-score": -0.0301}
{"Sequence": "AAACGCTC", "E-score": -0.059}
{"Sequence": "AATCTCCA", "E-score": 0.107}
{"data": "Series 6", "target": "Histone acetyltransferase KAT6A, winged helix 2, GST fusion (KAT6A, Homo sapiens, UniProt Q92794, residues 85-181)", "technique": "protein binding microarray", "molecule type": "double-stranded DNA, one strand shown", "medium": "in vitro", "tested at": "not given", "setting": "8-mer, flanks averaged, mean of 2 arrays, mostly near background", "relative to": "not given", "reading": "higher = stronger binding", "Residues (chain)": "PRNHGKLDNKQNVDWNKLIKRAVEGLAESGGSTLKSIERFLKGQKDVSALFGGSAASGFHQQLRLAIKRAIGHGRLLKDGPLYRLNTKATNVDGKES"}
{"Sequence": "CCTCTGAC", "E-score": 0.0981}
{"Sequence": "CATCACGA", "E-score": -0.0708}
{"Sequence": "AAGCAGTC", "E-score": -0.146}
{"Sequence": "ATAGGATC", "E-score": -0.0428}
{"Sequence": "AAGCCATG", "E-score": -0.056}
{"Sequence": "CACTACAG", "E-score": 0.00427}
{"Sequence": "GCGTGGAC", "E-score": -0.0109}
{"Sequence": "GCTAAATA", "E-score": 0.0745}
{"Sequence": "AGCATCTC", "E-score": -0.0898}
{"Sequence": "GTGGAAAC", "E-score": -0.0356}
{"Sequence": "AACGCCAC", "E-score": -0.0548}
{"Sequence": "GAGGCGGC", "E-score": 0.285}
{"Sequence": "AAGTGCAA", "E-score": -0.136}
{"Sequence": "CCCGCAGA", "E-score": 0.18}
{"Sequence": "ACCTCGTG", "E-score": 0.0744}
{"Sequence": "TCATCTCA", "E-score": -0.0747}
{"note": "Some of these lines once more (series 5):"}
{"Sequence": "AAACGCTC", "E-score": -0.059}
{"Sequence": "CGTGCCGA", "E-score": -0.232}
{"Sequence": "GCATTGGC", "E-score": -0.0746}
{"Sequence": "ATTGTTGA", "E-score": 0.227}
{"Sequence": "TCCCCCCA", "E-score": -0.1}
{"Sequence": "AATCTCCA", "E-score": 0.107}
{"Sequence": "CTTACTGA", "E-score": 0.113}
{"Sequence": "CCCCGTAC", "E-score": -0.206}
{"Sequence": "GTCGTAAC", "E-score": 0.00201}
{"Sequence": "GAACAAGA", "E-score": 0.0623}
{"Sequence": "CCGTGGTA", "E-score": -0.0925}
{"Sequence": "ACCTATTA", "E-score": 0.168}
{"Sequence": "AACCTAGG", "E-score": -0.0331}
{"Sequence": "ACTTAATC", "E-score": 0.196}
{"Sequence": "CGATAGCC", "E-score": -0.0749}
{"Sequence": "TAACAGCA", "E-score": 0.193}
